Experimental data of several laboratories.
Every numbered part comes from another study and shows a few of its results, in no order. Positions count from the first letter of the parent shown.
UniProt Q99640, sequence (whole entry, looked up): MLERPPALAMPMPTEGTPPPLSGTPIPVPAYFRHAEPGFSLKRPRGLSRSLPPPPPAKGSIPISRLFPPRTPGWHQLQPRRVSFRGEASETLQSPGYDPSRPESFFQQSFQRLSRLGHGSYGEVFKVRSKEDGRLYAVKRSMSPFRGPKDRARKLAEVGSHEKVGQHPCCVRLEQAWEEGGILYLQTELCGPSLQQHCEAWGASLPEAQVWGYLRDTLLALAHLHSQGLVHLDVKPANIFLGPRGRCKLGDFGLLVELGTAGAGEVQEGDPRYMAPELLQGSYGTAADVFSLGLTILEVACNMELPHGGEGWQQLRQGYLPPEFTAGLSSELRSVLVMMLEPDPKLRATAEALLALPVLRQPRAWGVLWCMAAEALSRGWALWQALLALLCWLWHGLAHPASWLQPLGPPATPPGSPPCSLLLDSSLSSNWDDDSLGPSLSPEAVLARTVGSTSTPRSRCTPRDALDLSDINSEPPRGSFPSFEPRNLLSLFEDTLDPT

Series 1
Target: RNA binding protein fox-1 homolog 2, RRM domain, GST-SBP tag (RBFOX2, Homo sapiens, UniProt O43251-10, residues 100-194)
Technique: RNA Bind-n-Seq
Molecule type: RNA
Matrix: in vitro
Concentration: 365 nM
Notes: natural RNA segment, single round, ends assumed
Relative to: no-protein control
Direction: higher = stronger binding
Construct (chain): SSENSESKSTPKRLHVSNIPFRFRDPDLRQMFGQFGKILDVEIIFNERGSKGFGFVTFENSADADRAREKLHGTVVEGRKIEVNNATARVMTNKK
| Sequence | RBNS enrichment (R) |
| --- | --- |
| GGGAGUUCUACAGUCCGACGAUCUGUGUUUUGUUUUUUACAAUACACAGUUCAGACAACAUCUUUUUACAGAUUUUAAAGCUUCAUUUAAAAAACAUAUAUCCAAAUGCAGGAAGCAAAGAAAAUACAGGAAAUGGAAUUCUCGGGUGCCAA | 0.375 |
| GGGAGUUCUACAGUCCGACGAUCCUAUAAAGAUGACACAGAAAUUGGAACCAACAAAACUGCUAACACCUUGUUGACUGUUCUGAGUUGAUAUAAGCAGUGGUAAUAAUGUGUGUACUCCUAAAUCUUUAUGCUGGAAUUCUCGGGUGCCAA | 0.318 |
| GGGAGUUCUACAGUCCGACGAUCUACUGGCUUAGUAAUCAAUACCAGUAAUUACCAUAGAACUUUAUCUGACUACCCAACCAUAUCAAAAGAGUACUUUUUUCUGGGUUAAUAAUACUAGCUUUGAUACAUAAUGGAAUUCUCGGGUGCCAA | 0.698 |
| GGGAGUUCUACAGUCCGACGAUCGGUUUGAAGGAAAGUUAUUGUCACGUGGUUUGUUUUCCUCAAAAUGAAGGGAUAGGACAAAAGAGACAAUCAAAUAUGGAGCUUAGCAUAGCUAGAAUGGCAUGAUGUCAUGGAAUUCUCGGGUGCCAA | 1.79 |
| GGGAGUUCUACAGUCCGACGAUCUUCACCUGUGAUGCUAGCAUUAAUGGCACCACCAUAUUCAUGCCAGUAGGCUCCCUGCAGUCCUUGGGAACUAUCCAAGCACGAAUCAGCAGAAGCUUGUAGGAUGAGUGUGGAAUUCUCGGGUGCCAA | 0.511 |
| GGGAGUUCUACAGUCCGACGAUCGAGCGGGAGGUGGGCAUAGACUCUAUUUUGUGUUGUAGAAGUGACAUACAGUUGGCUGCUUAACAGACUCUCUAGCCGUUCAUUUUUGUGACGUCUCUUUGUUAACCUAAUGGAAUUCUCGGGUGCCAA | 0.398 |
| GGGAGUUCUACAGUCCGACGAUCCUAAUACACUAAUAGUAAGAUUAAGUUAGGCAGUCUUCUACCAAAUGUGUAAUGGAGAUUGCCUCAAAAUUGUGUCCACAUAAUCCACGCUCAUCUUGCAAAGCGCUAUUUGGAAUUCUCGGGUGCCAA | 0.352 |
| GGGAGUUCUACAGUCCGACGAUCAUGCCUUUUUAAAAUUUAAUUUUCUAGCUGGCUCCAAUUCAAAUUGAGGAUUUAUGUAUUAGGCCACUUACUUGGUUGGCAAGUGCAGGAACUCAGUUAAAAUGCAGUUGUGGAAUUCUCGGGUGCCAA | 0.365 |

Series 2
Target: CCND2, cyclin fold, Cln2 fusion (human)
Technique: yeast growth competition, sequencing
Matrix: yeast
Notes: weak parent motif
Relative to: not given
Direction: higher = stronger binding
Parent: viral docking peptide; KKVKRRLFETREL
| Change | normalised enrichment score |
| --- | --- |
| KKVKKRLFETREL [R5K] | 0.135 |
| KKVKKRLLETREL [R5K F8L] | -0.0854 |
| KKVKRRLAETREL [F8A] | 0.474 |
| AKVKRRLFETREL [K1A] | 0.132 |
| KAVKRRLFETREL [K2A] | 0.548 |
| KKVKRRLFETRAL [E12A] | 0.0728 |
| KKVKARAFETREL [R5A L7A] | 0.0896 |
| KKVKRRAFETREL [L7A] | 0.346 |
| KKVKRRLFATREL [E9A] | -0.107 |
| KKVKARLFETREL [R5A] | 0.0854 |

Further values, each from its own experiment
T1: itself; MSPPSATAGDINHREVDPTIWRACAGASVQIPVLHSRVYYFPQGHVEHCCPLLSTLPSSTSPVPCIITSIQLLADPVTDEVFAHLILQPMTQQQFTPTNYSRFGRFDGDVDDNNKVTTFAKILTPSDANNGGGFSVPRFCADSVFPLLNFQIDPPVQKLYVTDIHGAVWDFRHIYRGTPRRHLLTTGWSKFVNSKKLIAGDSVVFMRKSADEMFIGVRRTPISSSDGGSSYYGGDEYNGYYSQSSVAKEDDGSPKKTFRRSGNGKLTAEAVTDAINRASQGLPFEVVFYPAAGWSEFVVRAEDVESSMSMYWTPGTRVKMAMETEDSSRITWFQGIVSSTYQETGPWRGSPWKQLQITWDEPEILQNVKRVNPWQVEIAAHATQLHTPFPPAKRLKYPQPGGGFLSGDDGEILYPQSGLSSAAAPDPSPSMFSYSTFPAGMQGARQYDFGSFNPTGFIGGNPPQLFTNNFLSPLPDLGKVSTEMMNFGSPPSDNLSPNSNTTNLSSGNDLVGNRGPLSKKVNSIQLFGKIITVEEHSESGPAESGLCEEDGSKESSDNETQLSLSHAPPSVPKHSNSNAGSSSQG
| Substance | tested on | assay | test system | conditions | scale | measurement | result |
| --- | --- | --- | --- | --- | --- | --- | --- |
| MTA1 (Homo sapiens, UniProt Q13330) | DYNC1H1 (Homo sapiens, UniProt Q14204) | cross-linking MS | cell fractions | together with: DSSO |  | cross-linked residues | K678 to T3769 |
| ARF17 (Arabidopsis thaliana, UniProt Q84WU6) | T1, itself | two-hybrid |  | weak activation fusion | relative to: out of 4 tests, higher = firmer interaction | positive tests | 0 |
| DRG2 (Homo sapiens, UniProt P55039) | RWDD1 (Homo sapiens, UniProt Q9H446) | cross-linking MS |  | hits only |  | interaction screen | cross-linked |
| C[C@@H]1C[C@@H]([C@H](O)CC2CC(=O)NC(=O)C2)C(=O)[C@@H](C)C1 | Membrane-associated tyrosine- and threonine-specific cdc2-inhibitory kinase (PKMYT1, Homo sapiens, UniProt Q99640) | immunoblotting | HCC1569 | 50 µg/mL, 1 h |  | remaining protein level | 69.4% |
| MCM3 (Homo sapiens, UniProt P25205) | MCM7 (Homo sapiens, UniProt P33993) | cross-linking MS | cell fractions | together with: DSSO |  | cross-linked residues | K435 to K236 |
| H2BC20P (Homo sapiens, UniProt Q6DN03) | H2AC21 (Homo sapiens, UniProt Q8IUE6) | cross-linking MS |  | hits only |  | interaction screen | cross-linked |
| DDX21 (Homo sapiens, UniProt Q9NR30) | KIF15 (Homo sapiens, UniProt Q9NS87) | cross-linking MS | cell fractions | together with: DMTMM |  | cross-linked residues | D14 to K1256 |

Repeated from above (series 2):
| Change | normalised enrichment score |
| --- | --- |
| KKVKARAFETREL [R5A L7A] | 0.0896 |
| KAVKRRLFETREL [K2A] | 0.548 |
| KKVKRRAFETREL [L7A] | 0.346 |
